Published values pooled from the literature.
Parts stem from different laboratories: compare values within a part only. Substitutions count along the parent as printed.

Sample 1 — target: CCNE1, cyclin fold, Cln2 fusion (human); technique: yeast growth competition, sequencing; medium: yeast; notes: strong parent motif; relative to: not given; reading: higher = stronger binding
Starting sequence: CDC25A docking peptide (human); PPHRRRLLFACSP
Variant	normalised enrichment score
PPYRRRLLFACSP [H3Y]	1.98
PPHRSRLLFACSP [R5S]	0.659
PPHRRTLLFACSP [R6T]	0.881
PPSRRRLLFACSP [H3S]	1.39
PPHRRRLLGACSP [F9G]	1.29
PPWRRRLLFACSP [H3W]	2.25
PPHDRRLLFACSP [R4D]	0.683
PPHRRMLLFACSP [R6M]	1.35

Sample 2 — technique: protein binding microarray; form: double-stranded DNA, one strand shown; medium: in vitro; tested at: not given; relative to: not given; reading: higher = stronger binding
Target: Histone acetyltransferase KAT6A, winged helix 1, GST fusion (KAT6A, Homo sapiens, UniProt Q92794, residues 1-85)
Notes: 8-mer, flanks averaged, mean of 2 arrays, mostly near background
Residues (chain): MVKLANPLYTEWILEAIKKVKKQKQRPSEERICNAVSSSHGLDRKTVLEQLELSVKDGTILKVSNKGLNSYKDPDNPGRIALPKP
Strand	E-score
TCCCGCCA	0.205
CGATATAG	0.00278
ACACAAAA	-0.248
GGTTCCAA	0.032
ATACTCAA	-0.149
GATCAGGC	-0.188
CCCTGTAA	-0.0261
TCCGGTCA	0.0543

Sample 3 — technique: protein-binding microarray; form: hairpin DNA; medium: in vitro; tested at: not given; relative to: not given; reading: higher = stronger binding
Target: Runt-related transcription factor 3, Runt domain (RUNX3, Homo sapiens, UniProt Q13761, residues 53-186)
UniProt Q13761, sequence (53-186, looked up): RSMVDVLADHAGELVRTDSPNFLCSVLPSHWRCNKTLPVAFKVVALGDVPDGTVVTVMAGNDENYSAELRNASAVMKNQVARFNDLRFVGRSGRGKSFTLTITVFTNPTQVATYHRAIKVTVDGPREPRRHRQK
Notes: whole hairpin DNA, median over replicate spots
Strand	median fluorescence [a.u.]
CTCAGTTATGTGGGCTGGACTCCTGTCCAGCCCACATAACTGAGACACTC	3950
CTCAGTTCCGTGGGCTGGACTCCTGTCCAGCCCACGGAACTGAGACACTC (5mC at 9 35)	4360
GAGGCCTGTCGCGGTTGGCCTCCTGGCCAACCGCGACAGGCCTCACACTC (5mC at 34)	6190
GAGGCCTCGTGTGGTTGGCCTCCTGGCCAACCACACGAGGCCTCACACTC (5mC at 8 36)	4750
GAGGCCTGTTGCGGTTGGCCTCCTGGCCAACCGCAACAGGCCTCACACTC (5mC at 32)	4870
GAGGCCCAACCGCAACAGCCTCCTGGCTGTTGCGGTTGGGCCTCACACTC (5mC at 16)	11100
GAGGCCTGTTGTGGCTGGCCTCCTGGCCAGCCACAACAGGCCTCACACTC	4940
CTCAGGTCTGTGGGCTGGACTCCTGTCCAGCCCACAGACCTGAGACACTC (5mC at 39)	4390

Other studies, line by line
Sequence	target	observed	form	tested at	quantity	value
GSEEIKSLF	HLA class I histocompatibility antigen, A alpha chain, allele A*80:01 (Homo sapiens, UniProt P04439)	peptide-MHC binding	peptide	concentration not given	binding	inactive

For quick reference, copied from above (sample 1):
Variant	normalised enrichment score
PPHRRRLLGACSP [F9G]	1.29
PPYRRRLLFACSP [H3Y]	1.98
PPHRSRLLFACSP [R5S]	0.659
PPHDRRLLFACSP [R4D]	0.683
